# Experimental data pooled from the literature.
# Every numbered part comes from another study and shows a few of its results, in no order.
# UniProt Q13554, sequence (whole entry, looked up): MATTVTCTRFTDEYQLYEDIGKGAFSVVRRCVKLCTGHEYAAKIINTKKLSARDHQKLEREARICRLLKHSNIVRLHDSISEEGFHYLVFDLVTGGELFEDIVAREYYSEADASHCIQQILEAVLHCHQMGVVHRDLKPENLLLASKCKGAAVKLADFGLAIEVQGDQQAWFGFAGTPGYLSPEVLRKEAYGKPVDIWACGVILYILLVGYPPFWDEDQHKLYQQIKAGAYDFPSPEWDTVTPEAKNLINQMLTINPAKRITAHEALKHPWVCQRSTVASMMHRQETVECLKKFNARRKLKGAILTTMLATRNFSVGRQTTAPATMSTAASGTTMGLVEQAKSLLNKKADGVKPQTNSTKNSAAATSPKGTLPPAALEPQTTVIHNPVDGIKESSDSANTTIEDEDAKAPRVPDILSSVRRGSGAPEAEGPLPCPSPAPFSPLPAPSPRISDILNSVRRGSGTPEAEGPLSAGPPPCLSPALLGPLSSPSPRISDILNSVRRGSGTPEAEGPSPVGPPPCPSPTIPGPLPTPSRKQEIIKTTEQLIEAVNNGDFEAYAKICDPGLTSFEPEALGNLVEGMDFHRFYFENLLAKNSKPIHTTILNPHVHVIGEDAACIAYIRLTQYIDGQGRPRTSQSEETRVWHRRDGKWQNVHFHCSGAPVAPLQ
# UniProt Q15139, sequence (whole entry, looked up): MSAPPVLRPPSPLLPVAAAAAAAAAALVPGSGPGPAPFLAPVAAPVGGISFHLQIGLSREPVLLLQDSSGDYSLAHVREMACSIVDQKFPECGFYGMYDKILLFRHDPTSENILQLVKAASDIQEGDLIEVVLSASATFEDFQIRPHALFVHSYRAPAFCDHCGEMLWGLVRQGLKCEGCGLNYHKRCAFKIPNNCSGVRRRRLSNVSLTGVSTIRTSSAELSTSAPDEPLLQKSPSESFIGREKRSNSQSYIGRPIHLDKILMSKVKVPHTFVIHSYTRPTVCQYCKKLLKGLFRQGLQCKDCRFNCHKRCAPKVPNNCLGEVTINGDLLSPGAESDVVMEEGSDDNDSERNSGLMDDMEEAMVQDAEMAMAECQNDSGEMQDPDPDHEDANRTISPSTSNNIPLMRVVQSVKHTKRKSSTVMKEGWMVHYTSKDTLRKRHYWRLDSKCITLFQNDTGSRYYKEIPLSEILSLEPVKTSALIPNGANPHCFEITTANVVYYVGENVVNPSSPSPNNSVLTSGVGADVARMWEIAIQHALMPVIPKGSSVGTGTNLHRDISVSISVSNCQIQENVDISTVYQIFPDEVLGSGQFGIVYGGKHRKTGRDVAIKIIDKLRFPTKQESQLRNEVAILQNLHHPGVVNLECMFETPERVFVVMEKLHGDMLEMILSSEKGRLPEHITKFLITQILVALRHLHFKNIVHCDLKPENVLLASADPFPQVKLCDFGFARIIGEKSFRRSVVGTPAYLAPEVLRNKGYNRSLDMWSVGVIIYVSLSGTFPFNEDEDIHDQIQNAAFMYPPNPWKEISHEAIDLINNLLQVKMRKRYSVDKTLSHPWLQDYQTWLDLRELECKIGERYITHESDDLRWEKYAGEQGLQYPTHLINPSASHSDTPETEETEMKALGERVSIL
# UniProt Q8NI60, sequence (whole entry, looked up): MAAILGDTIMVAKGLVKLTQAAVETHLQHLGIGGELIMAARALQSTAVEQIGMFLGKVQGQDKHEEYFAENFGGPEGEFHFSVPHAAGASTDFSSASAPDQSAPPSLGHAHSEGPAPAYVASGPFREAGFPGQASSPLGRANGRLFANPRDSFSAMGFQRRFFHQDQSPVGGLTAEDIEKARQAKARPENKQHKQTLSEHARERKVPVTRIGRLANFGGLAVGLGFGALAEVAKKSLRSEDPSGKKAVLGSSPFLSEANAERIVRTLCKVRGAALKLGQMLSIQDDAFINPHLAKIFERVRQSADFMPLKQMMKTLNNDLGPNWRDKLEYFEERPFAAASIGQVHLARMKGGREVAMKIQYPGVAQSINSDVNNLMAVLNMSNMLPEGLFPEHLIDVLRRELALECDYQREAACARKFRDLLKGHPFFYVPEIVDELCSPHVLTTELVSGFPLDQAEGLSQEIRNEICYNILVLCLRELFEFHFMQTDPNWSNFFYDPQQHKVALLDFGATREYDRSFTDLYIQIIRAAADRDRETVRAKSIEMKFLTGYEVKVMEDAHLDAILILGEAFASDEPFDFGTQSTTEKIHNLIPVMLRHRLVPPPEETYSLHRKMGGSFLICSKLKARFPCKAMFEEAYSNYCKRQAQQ
# UniProt Q15349, sequence (whole entry, looked up): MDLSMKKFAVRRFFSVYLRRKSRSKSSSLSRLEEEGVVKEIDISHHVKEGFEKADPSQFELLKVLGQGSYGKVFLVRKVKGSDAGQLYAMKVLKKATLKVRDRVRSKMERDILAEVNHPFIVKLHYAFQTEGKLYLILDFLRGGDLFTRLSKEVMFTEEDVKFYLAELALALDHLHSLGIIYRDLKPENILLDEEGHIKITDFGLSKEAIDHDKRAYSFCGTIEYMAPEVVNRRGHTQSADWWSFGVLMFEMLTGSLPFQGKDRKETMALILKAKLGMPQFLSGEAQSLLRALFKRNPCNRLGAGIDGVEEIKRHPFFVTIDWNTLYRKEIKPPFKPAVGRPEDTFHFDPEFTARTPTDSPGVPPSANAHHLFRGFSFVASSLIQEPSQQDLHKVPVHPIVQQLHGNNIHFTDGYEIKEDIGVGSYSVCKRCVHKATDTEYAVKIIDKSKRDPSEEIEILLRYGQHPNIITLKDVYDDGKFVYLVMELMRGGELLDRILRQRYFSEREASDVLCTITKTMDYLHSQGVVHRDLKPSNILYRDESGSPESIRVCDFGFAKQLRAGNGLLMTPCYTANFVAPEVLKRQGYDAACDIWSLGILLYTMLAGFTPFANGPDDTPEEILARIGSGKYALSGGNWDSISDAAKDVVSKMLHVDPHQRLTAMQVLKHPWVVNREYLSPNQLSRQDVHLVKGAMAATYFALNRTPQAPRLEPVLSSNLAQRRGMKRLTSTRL
# UniProt Q9Y6M4, sequence (whole entry, looked up): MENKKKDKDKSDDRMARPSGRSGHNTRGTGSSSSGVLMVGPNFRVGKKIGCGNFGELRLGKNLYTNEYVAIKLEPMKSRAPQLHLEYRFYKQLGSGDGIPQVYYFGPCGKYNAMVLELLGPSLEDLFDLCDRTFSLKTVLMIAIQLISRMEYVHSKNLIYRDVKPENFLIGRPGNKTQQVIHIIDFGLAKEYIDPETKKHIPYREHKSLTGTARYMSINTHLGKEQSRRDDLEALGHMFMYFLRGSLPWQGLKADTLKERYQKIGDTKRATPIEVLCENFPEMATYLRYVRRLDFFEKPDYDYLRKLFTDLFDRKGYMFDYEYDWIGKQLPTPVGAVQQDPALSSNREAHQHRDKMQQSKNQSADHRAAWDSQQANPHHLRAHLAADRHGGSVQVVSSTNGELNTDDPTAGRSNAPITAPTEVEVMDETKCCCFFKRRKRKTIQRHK
# UniProt O14920, sequence (whole entry, looked up): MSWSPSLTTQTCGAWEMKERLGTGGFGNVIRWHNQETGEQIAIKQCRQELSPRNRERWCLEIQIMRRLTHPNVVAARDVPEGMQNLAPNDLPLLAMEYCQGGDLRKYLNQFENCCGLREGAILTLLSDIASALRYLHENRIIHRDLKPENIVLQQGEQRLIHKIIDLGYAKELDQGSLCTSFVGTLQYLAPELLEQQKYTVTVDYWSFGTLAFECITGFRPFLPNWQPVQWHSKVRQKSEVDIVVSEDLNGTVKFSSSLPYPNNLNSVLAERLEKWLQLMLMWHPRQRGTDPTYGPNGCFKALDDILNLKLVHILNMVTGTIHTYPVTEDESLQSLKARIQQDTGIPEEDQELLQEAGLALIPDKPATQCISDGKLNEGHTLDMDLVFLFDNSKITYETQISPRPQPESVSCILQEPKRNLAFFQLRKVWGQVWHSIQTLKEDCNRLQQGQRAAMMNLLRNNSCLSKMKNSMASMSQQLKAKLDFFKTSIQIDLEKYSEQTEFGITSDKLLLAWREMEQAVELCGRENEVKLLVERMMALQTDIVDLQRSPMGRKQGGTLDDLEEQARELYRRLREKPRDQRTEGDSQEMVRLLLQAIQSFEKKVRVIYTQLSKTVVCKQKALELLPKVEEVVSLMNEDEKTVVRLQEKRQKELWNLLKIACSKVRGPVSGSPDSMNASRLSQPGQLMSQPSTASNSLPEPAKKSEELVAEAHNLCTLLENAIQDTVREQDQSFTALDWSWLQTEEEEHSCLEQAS
# UniProt P41743, sequence (whole entry, looked up): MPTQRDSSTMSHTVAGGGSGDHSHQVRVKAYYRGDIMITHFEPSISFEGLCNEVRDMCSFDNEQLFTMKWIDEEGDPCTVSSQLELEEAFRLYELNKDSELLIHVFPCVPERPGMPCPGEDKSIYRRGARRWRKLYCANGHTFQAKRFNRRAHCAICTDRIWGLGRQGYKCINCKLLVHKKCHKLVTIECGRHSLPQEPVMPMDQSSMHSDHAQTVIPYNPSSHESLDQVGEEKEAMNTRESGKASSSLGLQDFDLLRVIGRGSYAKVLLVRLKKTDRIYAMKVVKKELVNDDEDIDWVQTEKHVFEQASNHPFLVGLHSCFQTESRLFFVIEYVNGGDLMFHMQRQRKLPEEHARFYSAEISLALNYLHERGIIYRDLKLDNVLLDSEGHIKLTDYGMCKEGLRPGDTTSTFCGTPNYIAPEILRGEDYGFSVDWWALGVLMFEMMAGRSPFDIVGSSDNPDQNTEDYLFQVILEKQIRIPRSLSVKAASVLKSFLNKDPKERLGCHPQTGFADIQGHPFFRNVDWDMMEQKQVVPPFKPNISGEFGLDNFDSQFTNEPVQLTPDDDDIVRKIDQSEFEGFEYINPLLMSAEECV

# Sample 1
# SMILES: Nc1[nH]nc2nnc(-c3c(-c4ccccc4)nn4ccccc34)cc12
# Observed: enzyme activity
# Mode: inhibitor
# Tested at: 0.5 µM
# Baseline: control
target,remaining activity [%]
"EPHB4 (Homo sapiens, UniProt P54760)",98.5
"CAMK2B (Homo sapiens, UniProt Q13554)",102
"TSSK2 (Homo sapiens, UniProt Q96PF2)",104
"BLK (Homo sapiens, UniProt P51451)",98.1
"AXL (Homo sapiens, UniProt P30530)",99.1
"HIPK2 (Homo sapiens, UniProt Q9H2X6)",104

# Sample 2
# Organism: Sarcocystis neurona
# Observed: parasite activity
# Tested at: concentration not given
Structure (SMILES),activity class
CC(C)NCC(O)COc1cccc2ccccc12.Cl (centres unmarked),inactive
C[C@]12CC[C@@H]3c4ccc(O)cc4CC[C@H]3[C@@H]1CC[C@@H]2O,inactive
CCCN[C@H]1CCc2nc(N)sc2C1.Cl,inactive
Cc1cccc(CN2CCN(C(c3ccccc3)c3ccc(Cl)cc3)CC2)c1.Cl.Cl (centres unmarked),inactive
COc1ccc2[n-]c([S+]([O-])Cc3ncc(C)c(OC)c3C)nc2c1.COc1ccc2[n-]c([S+]([O-])Cc3ncc(C)c(OC)c3C)nc2c1.[Mg+2] (centres unmarked),inactive
CC(C)NCC(O)c1ccc(O)c(O)c1.Cl (centres unmarked),inactive

# Sample 3
# Cell line: mouse MPNST tumor cells
# Technique: high-content immunofluorescence imaging
# Refers to: nuclear SOX9
# Tested at: 10 µM
# Time: 12 h
# Notes: mean of 2 replicates
# Baseline: DMSO control
# Reading: higher = more nuclear SOX9
Structure (SMILES),nuclear SOX9 intensity
CC(=O)OCC(=O)[C@@]12OC3(CCCC3)O[C@@H]1C[C@H]1[C@@H]3CCC4=CC(=O)C=C[C@]4(C)[C@@]3(F)[C@@H](O)C[C@@]12C,77.2 % of DMSO
CCCOc1ccc(C(=O)OCCN(CC)CC)cc1N,94.7 % of DMSO
CCC(=O)[C@@]1(C)[C@H](C)C[C@H]2[C@@H]3CCC4=CC(=O)C=C[C@]4(C)[C@H]3[C@@H](O)C[C@@]21C,77.9 % of DMSO
N#Cc1cccc(C(=O)Nc2cc(-c3ccccc3)nn2-c2ccccc2)c1,117 % of DMSO
COc1ccc(CNc2nc(N(CCO)CCO)nc3c2ncn3C(C)C)cc1,84.3 % of DMSO

# Sample 4
# Structure (SMILES): c1ccc(N2CCN(Cc3nc4ccccc4[nH]3)CC2)nc1
# Technique: competition with immobilised ligand
# Tested at: 1 µM
target,observed,remaining binding [%]
"PRKD1 (Homo sapiens, UniProt Q15139)",binding,95
"CAMK4 (Homo sapiens, UniProt Q16566)",binding,88
"SRPK2 (Homo sapiens, UniProt P78362)",binding,100
"BRSK1 (Homo sapiens, UniProt Q8TDC3)",binding,91
"FGR (Homo sapiens, UniProt P09769)",cell-free assay,100
"PRKCI (Homo sapiens, UniProt P41743)",cell-free assay,97
"Tyrosine-protein kinase JAK1, JH1 (JAK1, Homo sapiens, UniProt P23458)",binding,91
"MAP2K4 (Homo sapiens, UniProt P45985)",binding,100
"NEK2 (Homo sapiens, UniProt P51955)",binding,100
"FRK (Homo sapiens, UniProt P42685)",cell-free assay,100
"CDKL5 (Homo sapiens, UniProt O76039)",binding,100
"CSNK1G3 (Homo sapiens, UniProt Q9Y6M4)",cell-free assay,100
"Ribosomal protein S6 kinase alpha-2, N-terminal kinase domain (RPS6KA2, Homo sapiens, UniProt Q15349)",binding,99
"COQ8A (Homo sapiens, UniProt Q8NI60)",cell-free assay,98
"WEE2 (Homo sapiens, UniProt P0C1S8)",binding,100
"MYLK (Homo sapiens, UniProt Q15746)",binding,80
"IKBKB (Homo sapiens, UniProt O14920)",cell-free assay,100

# Other studies, line by line
SMILES,host,dose,time,endpoint,result
CC(C)n1cnc(-c2ccc(F)cc2)c1-c1ncc(C(=O)Nc2ccc(N3CCN(C)CC3)cc2)[nH]1,IPF patients,60 mg once daily,week 0 to 12,acute exacerbation incidence,16.7%

# For quick reference, copied from above (sample 2):
Structure (SMILES),activity class
CC(C)NCC(O)COc1cccc2ccccc12.Cl (centres unmarked),inactive
C[C@]12CC[C@@H]3c4ccc(O)cc4CC[C@H]3[C@@H]1CC[C@@H]2O,inactive
CCCN[C@H]1CCc2nc(N)sc2C1.Cl,inactive
Cc1cccc(CN2CCN(C(c3ccccc3)c3ccc(Cl)cc3)CC2)c1.Cl.Cl (centres unmarked),inactive
